Results collected from several papers.
Each line is one published result; not all experiments were run side by side. ± marks the error that the study gave.
Technique: steady-state kinetics
B1: enzyme E217L/L163H/N249W (Thermobifida fusca, UniProt Q47RK4); chain MTDVYILDAVRTPFGRYGGALSGIRPDDLAAHVLRALAERSPGLDPAAVDDVFFGDANGAGEDNRNVARMAALLAGWPTSVPGVTLNRLCGSGMESVIAANRAIAVGDASLAVAGGVESMSRAPWVLPKPAQGFPTGHETLYSTTLGWRMVNPAMPEQWTVSHGESTEQVAATYGISRAEQDAFALRSHERAARAWAEGVFDAEITQIPGAELERDLSIRETSAEKLAALKPAFRPDGTITAGNASPLWDGAAALLIGDAAAAERVGREPLARIVSRGVAAVDPDVFGIGPVQAAEIALRRAGIGWDDLSVVELNEAFAAQSLACLKLWPDLDPEIVNPNGGAIAIGHPLGASGARIVGTLAHELHRRGGGWGLAAICIGVGQGLAVVLHR
B2: enzyme (Streptomyces albidoflavus, UniProt K0J3J2); chain AAGGYVALGDSYSSGVGAGSYDSGSGDCRRTPKAYPALWAAANSPASFDFVACSGAVTSDVLNKQMGPLNSSTSLVSLTIGGNDAGFADVMTTCVLQSEANCIARVNTAKAFVESTLPGRLDSVYSQVRAKAPSANVVVLGYPRFYKLNGTCVAGLTEGERTAINGAADLLNSVISKRAADHGYAYGDIAAAFTGHEICSGDSWLHSVKWTGINDSYHPTAAGQSGGYLPVLNSKA
B3: enzyme H376D (Acetivibrio thermocellus, UniProt A3DJ38); chain MKLTIPELSLVVLIGSSGSGKSTFAKKHFKPTEVISSDFCRGLVSDDENDQTVTGAAFDVLHYIVSKRLQLGKLTVVDATNVQESARKPLIEIAKDYHCFPVAVVFNLPEKVCQERNKNRTDRQVEEYVIRKHTQQLKKSIKGLQREGFRYVYILNSPEEVEEVVFERQPLWNNKKDEHGPFDIIGDIHGCYDELKMLLEKLGYLIEEVEGGVGSGKYRVTHPEGRKVLFLGDLVDRGPKITEVLKLVMGMVKSGIALCVPGNHDVKLLRKLNGRDVQITHGLDRTLEQLAKEPQEFIEEVKAFIDGLVSHYVLDDGKLVVAHAGMKEEFQGRGSGKVREFALYGETTGETDEYGLPVRYDWASDYRGKALVVYGDTPQAEVLKVNNTINIDTGCVFGGKLTAYRYPEREIVDVKALKTYYEPAKPFLPKEDMAERFEARTDNDILDINDVLGKKIITTRLMSSITIHEENSIAALEVMSRFAADPHWLIYLPPTMSPCETSKKEGMLEHPIEAFEYFRTRGVGKVVCEQKHMGSRAVVIVCKDSQVAEKRFGVLDGTAGICYTRTGRHFFDDMQLEAELIDRVRKVLDKSGFWGDFNTDWVCLDCELMPWSAKAQKLLEEQYSAVGISGRVVLDEAVKLLKQASLNKTVSFDVSRQTSGKNADINELLQRFTERSEMMQKYVEAYRKYCWPVNSIDDLKLAPFHILATEGKVHSDKNHIWHMDTIAKYCTQDDSLIMATNHILVDVTDAESVDKGIKWWEDLTASGGEGMVVKPYDFIVKNGRELLQPAVKCRGREYLRIIYGPEYTMDENIERLRNRAVGKKRSLALREFSLGMEALERFVRNEPLYRVHECVFGVLALESEPVDPRL
B4: nitrilase Y142A (Rhodococcus rhodochrous, UniProt A4LA85); chain MVEYTNTFKVAAVQAQPVWFDAAKTVDKTVSIIAEAARNGCELVAFPEVFIPGYPYHIWVDSPLAGMAKFAVRYHENSLTMDSPHVQRLLDAARDHNIAVVVGISERDGGSLYMTQLIIDADGQLVARRRKLKPTHVERSVAGEGNGSDISVYDMPFARLGALNCWEHFQTLTKYAMYSMHEQVHVASWPGMSLYQPEVPAFGVDAQLTATRMYALEGQTFVVCTTQVVTPEAHEFFCENEEQRKLIGRGGGFARIIGPDGRDLATPLAEDEEGILYADIDLSAITLAKQAADPVGHYSRPDVLSLNFNQRRTTPVNTPLSTIHATHTFVPQFGALDGVRELNGADEQRALPSTHSDETDRATASI
B5: protein F432Y (Streptomyces toyocaensis, UniProt Q8KLK7); chain MTTVLPPLEDTDGLWAALTEAAASVEKLLATLPEHGARSSAERAEIAAAHDAARALRVRFLDTHADAVYDRLTDHRRVHLRLAELVEAAATAFPGLVPTQQQLAVERSLPQAAKEGHEIDQGIFLRAVLRSPLAGPHLLDAMLRPTPRALELLPEFVRTGEVEMEAVHLERRDGVARLTMCRDDRLNAEDGQQVDDMETAVDLALLDPGVRVGLLRGGVMSHPRYRGKRVFSAGINLKYLSQGGISLVDFLMRRELGYIHKLVRGVLTNDDRPGWWHSPRIEKPWVAAVDGFAIGGGAQLLLVFDRVLASSDAYFSLPAAKEGIIPGAANLRLGRFAGPRVSRQVILEGRRIWAKEPEARLLVDEVVEPDELDAAIERSLTRLDGDAVLANRRMLNLADESPDGFRAYMAEFALMQALRLYGHDVIDKVGRYGGRPPA
UniProt Q8PWY1, sequence (whole entry, looked up): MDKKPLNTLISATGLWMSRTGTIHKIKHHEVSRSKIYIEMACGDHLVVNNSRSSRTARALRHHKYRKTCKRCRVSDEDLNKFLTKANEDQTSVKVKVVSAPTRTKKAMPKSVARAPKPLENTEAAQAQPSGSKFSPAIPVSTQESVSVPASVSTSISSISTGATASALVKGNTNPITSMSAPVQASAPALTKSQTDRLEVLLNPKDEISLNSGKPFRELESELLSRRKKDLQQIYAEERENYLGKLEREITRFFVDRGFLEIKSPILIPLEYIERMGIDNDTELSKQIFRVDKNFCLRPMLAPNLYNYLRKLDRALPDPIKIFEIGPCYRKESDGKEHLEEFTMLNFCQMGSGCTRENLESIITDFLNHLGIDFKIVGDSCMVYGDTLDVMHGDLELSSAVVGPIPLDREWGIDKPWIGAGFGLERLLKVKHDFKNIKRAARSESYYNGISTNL

OXA-48 (Klebsiella pneumoniae, UniProt Q6XEC0) — kcat (C[C@@H](O)[C@H]1C(=O)N2C(C(=O)O)=C(S[C@@H]3CN[C@H](C(=O)N(C)C)C3)[C@H](C)[C@H]12; pH 7.2, 30 °C): 0.11 ± 0.01 s⁻¹
tgt C145V/T146V/V217G (Escherichia coli) — kcat (Nc1nc2nc[nH]c2c(=O)[nH]1; pH 7.3, 37 °C): 0.00122 s⁻¹
wbpB (Pseudomonas aeruginosa, UniProt G3XD23) — kcat (O=C(O)CCC(=O)C(=O)O; pH 8.5, 25 °C): 5550 ± 70 s⁻¹
azu N36H/Q28H/Q34H (Pseudomonas aeruginosa) — kcat (O=NO; pH 6.35): 0.00983 s⁻¹
B1 (enzyme E217L/L163H/N249W) — kcat (CC(C)(COP(=O)(O)OP(=O)(O)OC[C@H]1O[C@@H](n2cnc3c(N)ncnc32)[C@H](O)[C@@H]1OP(=O)(O)O)[C@@H](O)C(=O)NCCC(=O)NCCSC(=O)CC(=O)O; pH 7.4, 37 °C): 0.003 ± 0.0035 s⁻¹
PA3944 (Pseudomonas aeruginosa, UniProt Q9HX72) — kcat (NCC[C@H](N)C(=O)O; pH 8, 37 °C): 0.391 s⁻¹
B2 (enzyme) — kcat (CCCCCCCC/C=C\CCCCCCCC(=O)O[C@H](COC(=O)CCCCCCCCCCCCCCC)COP(=O)(O)O; pH 7.2, 50 °C, apparent): 630 s⁻¹
B3 (enzyme H376D) — kcat (Nc1ncnc2c1ncn2[C@@H]1O[C@H](CO)[C@H]2OP(=O)(O)O[C@H]21; pH 7.5, 45 °C): 3.2 ± 0.767 s⁻¹
pylS (Methanosarcina mazei, UniProt Q8PWY1) — kcat (C=CCOC(=O)NCCCC[C@H](N)C(=O)O; pH 7.2, 37 °C, apparent): 0.001 ± 0.0001 s⁻¹
B4 (nitrilase Y142A) — kcat (Cc1cccc(C#N)c1; pH 7.5, 25 °C): 0.000188 ± 1e-05 s⁻¹
B5 (protein F432Y) — kcat (CC(C)(COP(=O)(O)OP(=O)(O)OC[C@H]1O[C@@H](n2cnc3c(N)ncnc32)[C@H](O)[C@@H]1OP(=O)(O)O)[C@@H](O)C(=O)NCCC(=O)NCCSC(=O)Cc1cc(O)cc(O)c1; pH 7.5, 24 °C, with: O2): 0.125 ± 0.009 s⁻¹

A few entries again:
B1 (enzyme E217L/L163H/N249W) — kcat (CC(C)(COP(=O)(O)OP(=O)(O)OC[C@H]1O[C@@H](n2cnc3c(N)ncnc32)[C@H](O)[C@@H]1OP(=O)(O)O)[C@@H](O)C(=O)NCCC(=O)NCCSC(=O)CC(=O)O; pH 7.4, 37 °C): 0.003 ± 0.0035 s⁻¹
